Measurements of several laboratories.
Each numbered part is a random draw from the data of one study; scales do not carry over between parts. Values joined by “and” are separate records of one study, mostly repeats; a detail may differ.
Chain of UniProt P36897 (whole entry, looked up): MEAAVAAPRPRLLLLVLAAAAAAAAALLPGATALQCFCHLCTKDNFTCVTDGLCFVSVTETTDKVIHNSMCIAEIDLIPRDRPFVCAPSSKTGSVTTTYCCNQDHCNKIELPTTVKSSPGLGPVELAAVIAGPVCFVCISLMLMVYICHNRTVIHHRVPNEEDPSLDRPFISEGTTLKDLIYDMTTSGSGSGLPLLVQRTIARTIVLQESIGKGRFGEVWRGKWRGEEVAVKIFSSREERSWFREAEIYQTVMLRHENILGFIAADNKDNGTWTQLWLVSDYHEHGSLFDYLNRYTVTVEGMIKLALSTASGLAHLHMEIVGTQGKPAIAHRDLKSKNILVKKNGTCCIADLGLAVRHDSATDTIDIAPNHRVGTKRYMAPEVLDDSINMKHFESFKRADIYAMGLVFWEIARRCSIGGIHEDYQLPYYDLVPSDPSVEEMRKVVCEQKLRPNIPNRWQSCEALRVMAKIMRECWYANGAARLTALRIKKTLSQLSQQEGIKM
Chain of UniProt P37173 (whole entry, looked up): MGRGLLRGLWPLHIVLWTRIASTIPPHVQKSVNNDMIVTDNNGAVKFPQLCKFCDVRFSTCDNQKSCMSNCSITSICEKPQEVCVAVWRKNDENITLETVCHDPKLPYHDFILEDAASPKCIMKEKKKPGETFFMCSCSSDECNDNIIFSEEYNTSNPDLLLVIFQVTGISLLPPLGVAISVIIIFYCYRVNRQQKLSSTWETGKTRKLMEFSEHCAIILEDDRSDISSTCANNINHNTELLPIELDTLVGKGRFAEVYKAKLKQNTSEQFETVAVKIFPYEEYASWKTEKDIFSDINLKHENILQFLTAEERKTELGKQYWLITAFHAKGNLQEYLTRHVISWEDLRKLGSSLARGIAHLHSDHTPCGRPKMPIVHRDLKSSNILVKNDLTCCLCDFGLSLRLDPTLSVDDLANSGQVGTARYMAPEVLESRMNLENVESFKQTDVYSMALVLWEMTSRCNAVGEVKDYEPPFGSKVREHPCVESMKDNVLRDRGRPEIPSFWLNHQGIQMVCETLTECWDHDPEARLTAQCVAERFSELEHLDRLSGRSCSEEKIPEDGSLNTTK
Chain of UniProt O14920 (whole entry, looked up): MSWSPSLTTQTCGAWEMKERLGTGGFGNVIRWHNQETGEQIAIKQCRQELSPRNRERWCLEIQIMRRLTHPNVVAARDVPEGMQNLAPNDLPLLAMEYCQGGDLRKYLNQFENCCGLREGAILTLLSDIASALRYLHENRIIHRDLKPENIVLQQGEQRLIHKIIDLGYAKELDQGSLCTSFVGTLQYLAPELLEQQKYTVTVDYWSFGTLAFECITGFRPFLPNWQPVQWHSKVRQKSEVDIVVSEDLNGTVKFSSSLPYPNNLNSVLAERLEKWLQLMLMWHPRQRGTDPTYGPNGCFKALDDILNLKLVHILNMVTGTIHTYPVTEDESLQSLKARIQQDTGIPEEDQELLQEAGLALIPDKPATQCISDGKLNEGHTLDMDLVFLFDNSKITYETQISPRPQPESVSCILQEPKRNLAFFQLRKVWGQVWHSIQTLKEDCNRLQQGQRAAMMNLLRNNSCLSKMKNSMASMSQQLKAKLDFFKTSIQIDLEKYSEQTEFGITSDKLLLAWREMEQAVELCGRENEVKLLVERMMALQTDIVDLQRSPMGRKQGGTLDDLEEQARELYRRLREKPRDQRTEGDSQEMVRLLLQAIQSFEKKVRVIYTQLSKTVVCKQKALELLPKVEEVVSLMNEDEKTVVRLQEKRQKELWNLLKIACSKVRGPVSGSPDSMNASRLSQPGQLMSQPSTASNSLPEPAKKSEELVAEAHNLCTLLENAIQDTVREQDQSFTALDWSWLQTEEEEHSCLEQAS
Chain of UniProt P00519 (whole entry, unmodified, looked up): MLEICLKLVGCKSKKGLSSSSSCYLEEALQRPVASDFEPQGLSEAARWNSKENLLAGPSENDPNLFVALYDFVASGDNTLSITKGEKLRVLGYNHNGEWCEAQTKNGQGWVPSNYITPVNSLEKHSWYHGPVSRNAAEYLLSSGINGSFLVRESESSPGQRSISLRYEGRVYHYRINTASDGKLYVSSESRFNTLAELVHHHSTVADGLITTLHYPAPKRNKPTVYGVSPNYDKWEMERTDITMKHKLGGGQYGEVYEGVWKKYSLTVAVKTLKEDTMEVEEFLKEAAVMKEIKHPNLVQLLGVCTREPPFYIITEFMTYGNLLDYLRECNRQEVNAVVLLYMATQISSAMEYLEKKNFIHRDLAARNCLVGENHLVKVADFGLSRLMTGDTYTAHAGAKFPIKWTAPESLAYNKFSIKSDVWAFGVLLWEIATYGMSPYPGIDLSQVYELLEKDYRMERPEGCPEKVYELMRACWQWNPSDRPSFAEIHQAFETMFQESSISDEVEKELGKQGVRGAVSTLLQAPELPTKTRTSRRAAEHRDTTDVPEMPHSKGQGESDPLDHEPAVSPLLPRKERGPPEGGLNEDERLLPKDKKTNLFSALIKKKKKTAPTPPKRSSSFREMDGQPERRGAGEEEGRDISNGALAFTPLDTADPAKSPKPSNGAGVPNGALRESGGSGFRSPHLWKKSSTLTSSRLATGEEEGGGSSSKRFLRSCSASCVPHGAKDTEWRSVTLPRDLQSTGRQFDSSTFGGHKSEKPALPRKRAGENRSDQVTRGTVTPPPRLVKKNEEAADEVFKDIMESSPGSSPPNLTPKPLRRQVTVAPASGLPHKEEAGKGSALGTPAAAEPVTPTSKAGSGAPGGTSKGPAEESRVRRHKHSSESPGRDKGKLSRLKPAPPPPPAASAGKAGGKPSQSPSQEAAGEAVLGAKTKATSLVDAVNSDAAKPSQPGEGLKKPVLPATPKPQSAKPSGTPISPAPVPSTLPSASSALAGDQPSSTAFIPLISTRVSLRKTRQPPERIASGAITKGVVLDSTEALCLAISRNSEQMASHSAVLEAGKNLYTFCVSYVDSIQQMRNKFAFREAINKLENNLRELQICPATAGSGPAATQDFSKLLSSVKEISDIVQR
Chain of UniProt Q14164 (whole entry, looked up): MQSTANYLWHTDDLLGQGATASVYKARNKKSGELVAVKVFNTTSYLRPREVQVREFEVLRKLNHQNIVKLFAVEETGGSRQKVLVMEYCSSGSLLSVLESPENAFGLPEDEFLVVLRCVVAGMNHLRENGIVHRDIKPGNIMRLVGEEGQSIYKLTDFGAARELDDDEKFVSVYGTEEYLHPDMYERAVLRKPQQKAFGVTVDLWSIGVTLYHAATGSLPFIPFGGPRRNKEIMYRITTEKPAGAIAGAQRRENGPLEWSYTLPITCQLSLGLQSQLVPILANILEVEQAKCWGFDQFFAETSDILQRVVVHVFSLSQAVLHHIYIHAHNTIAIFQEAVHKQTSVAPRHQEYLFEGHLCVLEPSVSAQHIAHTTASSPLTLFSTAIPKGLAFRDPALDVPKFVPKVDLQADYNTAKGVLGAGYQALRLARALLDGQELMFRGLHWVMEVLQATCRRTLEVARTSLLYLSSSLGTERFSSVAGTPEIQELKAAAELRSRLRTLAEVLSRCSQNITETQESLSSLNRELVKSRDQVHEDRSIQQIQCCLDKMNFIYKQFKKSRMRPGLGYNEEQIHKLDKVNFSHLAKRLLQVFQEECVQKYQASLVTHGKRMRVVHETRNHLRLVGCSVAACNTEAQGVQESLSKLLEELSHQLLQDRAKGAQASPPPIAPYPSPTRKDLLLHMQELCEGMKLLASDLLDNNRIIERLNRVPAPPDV
Chain of UniProt Q15831 (whole entry, looked up): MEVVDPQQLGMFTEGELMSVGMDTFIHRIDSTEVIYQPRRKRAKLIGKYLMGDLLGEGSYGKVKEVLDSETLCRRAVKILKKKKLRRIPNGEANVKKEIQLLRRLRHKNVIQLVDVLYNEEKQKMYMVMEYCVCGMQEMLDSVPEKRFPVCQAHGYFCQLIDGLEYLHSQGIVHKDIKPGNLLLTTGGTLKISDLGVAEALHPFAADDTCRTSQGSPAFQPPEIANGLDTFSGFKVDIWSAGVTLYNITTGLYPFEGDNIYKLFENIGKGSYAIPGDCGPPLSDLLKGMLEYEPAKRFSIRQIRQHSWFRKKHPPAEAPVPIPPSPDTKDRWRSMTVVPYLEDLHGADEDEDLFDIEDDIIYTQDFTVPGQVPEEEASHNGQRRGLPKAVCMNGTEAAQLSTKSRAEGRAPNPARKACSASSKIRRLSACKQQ
Chain of UniProt Q96RR4 (whole entry, looked up): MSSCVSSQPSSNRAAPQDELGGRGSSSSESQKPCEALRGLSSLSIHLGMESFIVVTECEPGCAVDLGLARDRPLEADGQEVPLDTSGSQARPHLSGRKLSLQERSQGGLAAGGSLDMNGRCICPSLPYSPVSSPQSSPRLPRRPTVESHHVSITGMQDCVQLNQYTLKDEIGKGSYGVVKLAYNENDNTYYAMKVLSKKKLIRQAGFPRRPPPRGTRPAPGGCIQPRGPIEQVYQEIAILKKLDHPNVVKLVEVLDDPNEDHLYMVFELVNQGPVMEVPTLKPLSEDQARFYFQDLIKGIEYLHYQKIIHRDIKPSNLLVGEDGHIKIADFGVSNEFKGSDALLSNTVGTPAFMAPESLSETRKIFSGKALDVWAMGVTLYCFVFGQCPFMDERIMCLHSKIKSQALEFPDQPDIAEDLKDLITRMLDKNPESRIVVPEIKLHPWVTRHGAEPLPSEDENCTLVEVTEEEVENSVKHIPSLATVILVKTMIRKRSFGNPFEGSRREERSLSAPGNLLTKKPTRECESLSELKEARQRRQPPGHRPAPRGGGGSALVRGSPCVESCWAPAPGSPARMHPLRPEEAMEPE
Chain of UniProt Q00535 (whole entry, looked up): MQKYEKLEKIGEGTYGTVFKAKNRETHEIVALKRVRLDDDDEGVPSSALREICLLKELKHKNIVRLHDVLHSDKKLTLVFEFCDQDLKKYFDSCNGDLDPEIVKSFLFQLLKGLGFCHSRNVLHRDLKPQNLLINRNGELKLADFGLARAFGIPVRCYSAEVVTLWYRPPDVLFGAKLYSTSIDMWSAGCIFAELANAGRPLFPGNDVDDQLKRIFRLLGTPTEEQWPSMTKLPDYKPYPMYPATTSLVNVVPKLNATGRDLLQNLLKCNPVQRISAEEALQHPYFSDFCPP

Series 1 — host: NSG mouse, HuT78 xenograft; dose: dose not given
SMILES: CC(C)(C)c1cnc(CSc2cnc(NC(=O)C3CCN(CCCCCSc4cccc5c4CN(C4CCC(=O)NC4=O)C5=O)CC3)s2)o1 (stereo not shown)
For intraperitoneal, day 7: tumour volume read 58.8 mm³ and 39.5 mm³ and 20.2 mm³ and 75.4 mm³.
It gave 237 mm³ and 144 mm³ and 306 mm³ and 157 mm³ and 445 mm³ for tumour volume (subcutaneous, day 14).
The tumour volume was 44.5 mm³ and 143 mm³ and 81.6 mm³ and 41.6 mm³ (intraperitoneal, day 2).

Series 2 — host: mouse; sample: microsomes or S9; tested at: 2 µM; time: 0.5 h
For `CCc1c(C(=O)OC(C)c2nnc(C)o2)[nH]c(C)c1C(C)=O` (stereo not shown), the remaining compound was 66.7%.
For `Cn1ncnc1CN(Cc1ccc2c(c1)OCO2)C1CCCCC1`, the remaining compound was 0.00969%.
For `CC1=NOC(C)(CNC(=O)c2cc(C)ccc2C)C1` (stereo not shown), the remaining compound was 75%.
With `CC1(C)CC(=O)C2=C(C1)c1c(ccc3ncccc13)NC2c1ccc(F)cc1` (stereo not shown) the remaining compound was 30%.

Series 3 — read-out: enzyme activity; mode: inhibitor; tested at: 0.5 µM; relative to: control
Compound: Oc1cccc(-c2nc(N3CCOCC3)c3oc4ncccc4c3n2)c1
IKBKB (Homo sapiens, UniProt O14920) — remaining activity: 98.3%.
The remaining activity was 92.1% (STK10 (Homo sapiens, UniProt O94804)).
DAPK1 (Homo sapiens, UniProt P53355) — remaining activity: 78%.
For STK11 (Homo sapiens, UniProt Q15831): remaining activity read 86.4%.
It gave 97.8% for remaining activity (Protein kinase C beta type, isoform beta-I (PRKCB, Homo sapiens, UniProt P05771)).
NEK2 (Homo sapiens, UniProt P51955) — remaining activity: 88.6%.
It gave 109% for remaining activity (cGMP-dependent protein kinase 1, isoform beta (PRKG1, Homo sapiens, UniProt Q13976)).
The remaining activity was 93.2% (OXSR1 (Homo sapiens, UniProt O95747)).
Tyrosine-protein kinase Lyn, isoform B (LYN, Homo sapiens, UniProt P07948) — remaining activity: 98.3%.
The remaining activity was 110% (GRK3 (Homo sapiens, UniProt P35626)).
STK39 (Homo sapiens, UniProt Q9UEW8) — remaining activity: 105%.
It gave 98.8% for remaining activity (IKBKE (Homo sapiens, UniProt Q14164)).
It gave 99.5% for remaining activity (PRKACA (Homo sapiens, UniProt P17612)).
It gave 117% for remaining activity (DAPK2 (Homo sapiens, UniProt Q9UIK4)).
The remaining activity was 96.2% (CAMK2D (Homo sapiens, UniProt Q13557)).
It gave 103% for remaining activity (PRKCA (Homo sapiens, UniProt P17252)).
It gave 95% for remaining activity (TGFBR1 (Homo sapiens, UniProt P36897)).
The remaining activity was 77.9% (Cyclin-dependent kinase 5, with p25 (CDK5, Homo sapiens, UniProt Q00535)).
TGFBR2 (Homo sapiens, UniProt P37173) — remaining activity: 102%.
It gave 79.8% for remaining activity (CAMKK2 (Homo sapiens, UniProt Q96RR4)).

Series 4 — technique: competition with immobilised ligand; tested at: 1 µM
Structure (SMILES): COc1cc(-c2cn(C3CCc4ccccc4N(CC(F)(F)F)C3=O)nn2)ccc1-n1ccc(C)n1 (stereo not shown)
The remaining binding was 65% (Tyrosine-protein kinase ABL1, non-phosphorylated (ABL1, Homo sapiens, UniProt P00519, F317I); binding).
TGFBR1 (Homo sapiens, UniProt P36897); cell-free assay — remaining binding: 100%.
For FGR (Homo sapiens, UniProt P09769); cell-free assay: remaining binding read 90%.
The remaining binding was 92% (EPHA4 (Homo sapiens, UniProt P54764); cell-free assay).
The remaining binding was 100% (HIPK4 (Homo sapiens, UniProt Q8NE63); cell-free assay).

Series 5 — technique: PRP chromatography; notes: linear fit, 1 mL
`CC(C)C[C@@H]1NC(=O)[C@H](C(C)C)NC(=O)[C@H](CC(C)C)NC(=O)[C@@H](CC(C)C)NC(=O)[C@H](CC(C)C)NC(=O)[C@@H](C)NC(=O)[C@@H](CC(C)C)NC1=O` gave a logD 1,9-decadiene/water of 0.717 log units.
`CC(C)C[C@@H]1NC(=O)[C@H](CC(C)C)NC(=O)[C@@H](CC(C)C)NC(=O)[C@H](CC(C)C)NC(=O)[C@H](C(C)C)NC(=O)[C@H](Cc2cscn2)NC(=O)[C@H](C)NC1=O` gave a logD 1,9-decadiene/water of -0.172 log units.
For `CC(C)C[C@@H]1NC(=O)[C@H](CC(C)C)NC(=O)[C@H](CC(C)C)NC(=O)[C@H](CC(C)C)NC(=O)[C@@H](CCC(=O)N2CCCC2)NC(=O)[C@H](C)NC(=O)[C@H](C)NC1=O`, the logD 1,9-decadiene/water was -1.84 log units.
`CC(C)C[C@@H]1NC(=O)[C@H](CC(C)C)NC(=O)[C@H](CC(C)C)NC(=O)[C@@H](C)NC(=O)[C@H](C)NC(=O)[C@@H](CC(C)C)NC(=O)[C@H](C)NC1=O` gave a logD 1,9-decadiene/water of -1.84 log units.
For `CC(C)C[C@@H]1NC(=O)[C@@H](C)NC(=O)[C@H](C)NC(=O)[C@H](C)NC(=O)[C@H](C(C)C)NC(=O)[C@H](CC(C)C)NC(=O)[C@@H](CC(C)C)NC1=O`, the logD 1,9-decadiene/water was -2.3 log units.

Further values, each from its own experiment — cell line: HaCaT; tested at: 100 µM; time: 60 h
`CCc1nn(CCCN2CCN(c3cccc(Cl)c3)CC2)c(=O)n1CCOc1ccccc1` gave a viability of 16.2%.
The viability of `O=C1CN2Cc3c(ccc(Cl)c3Cl)N=C2N1` is reported as 131%.
With `COc1cc(C(=O)N2CCOCC2)cc(OC)c1OC` the viability was 116%.

For quick reference, copied from above (series 3):
It gave 98.8% for remaining activity (IKBKE (Homo sapiens, UniProt Q14164)).
It gave 99.5% for remaining activity (PRKACA (Homo sapiens, UniProt P17612)).
It gave 117% for remaining activity (DAPK2 (Homo sapiens, UniProt Q9UIK4)).
The remaining activity was 96.2% (CAMK2D (Homo sapiens, UniProt Q13557)).
It gave 103% for remaining activity (PRKCA (Homo sapiens, UniProt P17252)).
